Published values pooled from the literature.
Protocols differ between the studies behind these lines. ± marks the error that the study gave.
MDM2: E3 ubiquitin-protein ligase Mdm2 (MDM2, Homo sapiens, UniProt Q00987)
Chain of UniProt Q00987 (whole entry, unmodified, looked up): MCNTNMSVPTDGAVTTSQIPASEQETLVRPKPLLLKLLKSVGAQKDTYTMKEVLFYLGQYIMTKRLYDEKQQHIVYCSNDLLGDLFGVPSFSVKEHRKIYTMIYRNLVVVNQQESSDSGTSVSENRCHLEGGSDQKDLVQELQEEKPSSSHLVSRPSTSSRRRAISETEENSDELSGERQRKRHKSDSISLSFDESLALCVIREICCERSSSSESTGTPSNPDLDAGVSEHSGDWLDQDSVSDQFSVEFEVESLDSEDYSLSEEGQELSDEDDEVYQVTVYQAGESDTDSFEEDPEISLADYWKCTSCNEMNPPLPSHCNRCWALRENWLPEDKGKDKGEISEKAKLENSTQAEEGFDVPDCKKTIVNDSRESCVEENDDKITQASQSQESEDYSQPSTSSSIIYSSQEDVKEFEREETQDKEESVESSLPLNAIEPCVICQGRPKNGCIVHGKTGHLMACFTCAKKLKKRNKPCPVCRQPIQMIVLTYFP
MDM2 L33E L33E; with p53: E3 ubiquitin-protein ligase Mdm2, L33E; with p53 (MDM2, Homo sapiens, UniProt Q00987, L33E)
MDM2 N-terminal domain 17-125: E3 ubiquitin-protein ligase Mdm2, N-terminal domain 17-125 (MDM2, Homo sapiens, UniProt Q00987)

CC(=O)N(Cc1ccccc1)[C@@H](C)C(=O)N(C)[C@@H](C)C(=O)N(Cc1c[nH]c2ccc(Cl)cc12)[C@@H](C)C(=O)N(C)[C@@H](C)C(=O)N(CCC(C)C)[C@@H](C)C(N)=O
Ki (MDM2; ligand displacement, FP): 2700 nM

CC(C)Oc1cc(NC(=O)[C@H](Cc2ccccc2)NC(=O)c2ccc(N)cc2OCc2ccccc2)ccc1C(=O)NCC(=O)O
IC50 (MDM2 L33E L33E; with p53; fluorescence anisotropy competition; pH 7.5): 10100 ± 1100 nM

CC(=O)N(CC(=O)N(C)CC(=O)N(CC(=O)N(C)CC(=O)N(CCC(C)(C)C)CC(=O)N(C)CC(=O)N(C)CC(=O)N(C)CC(=O)NCCNC(=O)c1ccc2c(c1)C(=O)OC21c2ccc(O)cc2Oc2cc(O)ccc21)Cc1c[nH]c2cc(Cl)ccc12)Cc1ccccc1
Kd (MDM2 N-terminal domain 17-125; binding, fluorescence anisotropy; 25 °C, fluorescein-labelled peptoid, 10 nM): 21000 nM

CCCCN(C(=O)[C@H](C)N(C)C(=O)[C@H](C)N(Cc1c[nH]c2ccccc12)C(=O)[C@H](C)N(C)C(=O)[C@H](C)N(Cc1ccccc1)C(C)=O)[C@@H](C)C(N)=O
Ki (MDM2; ligand displacement, FP): 10600 nM

CC(=O)N[C@@H](CC(C)C)C(=O)N[C@H](C(=O)N[C@@H](Cc1ccccc1)C(=O)N[C@@]1(C)CCCC=CCCC[C@@](C)(C(=O)N[C@@H](CCC(N)=O)C(=O)N[C@@H](CC(C)C)C(=O)N[C@H](C(=O)N[C@@H](CO)C(N)=O)[C@@H](C)O)NC(=O)[C@H](Cc2c[nH]c3ccccc23)NC(=O)[C@H](Cc2ccc(O)cc2)NC(=O)[C@H](CCC(=O)O)NC1=O)[C@@H](C)O
Ki (MDM2; ligand displacement, FP): 10.7 nM

CC(=O)N[C@@H](CC(C)C)C(=O)N[C@H](C(=O)N[C@@H](Cc1ccccc1)C(=O)N[C@H]1CCCCNC(=O)C[C@@H](C(=O)N[C@@H](CCC(N)=O)C(=O)N[C@@H](CC(C)C)C(=O)N[C@H](C(=O)N[C@@H](CO)C(N)=O)[C@@H](C)O)NC(=O)[C@H](Cc2c[nH]c3ccccc23)NC(=O)[C@H](Cc2ccc(O)cc2)NC(=O)[C@H](CCC(=O)O)NC1=O)[C@@H](C)O
IC50 (MDM2; ligand displacement, FP): 7 nM

CCOC(=O)[C@@H]1Cc2c(cc([N+](=O)[O-])cc2[N+](=O)[O-])[C@H](O)[C@]12C(=O)Nc1ccc(Br)cc12
IC50 (MDM2): 78 nM

CC(=O)N(Cc1cccc(Cl)c1)[C@@H](C)C(=O)N(C)[C@@H](C)C(=O)N(Cc1c[nH]c2ccccc12)[C@@H](C)C(=O)N(C)[C@@H](C)C(=O)N(CCC(C)C)[C@@H](C)C(N)=O
Ki (MDM2; ligand displacement, FP): 6000 nM

CC(=O)N[C@@H](CC(C)C)C(=O)N[C@H](C(=O)N[C@@H](Cc1ccccc1)C(=O)N[C@H]1CSCCCCCCCCSC[C@@H](C(=O)N[C@@H](CO)C(N)=O)NC(=O)[C@H](CC(C)C)NC(=O)[C@H](CCC(N)=O)NC(=O)[C@H](C)NC(=O)[C@H](Cc2c[nH]c3ccccc23)NC(=O)[C@H](Cc2ccc(O)cc2)NC(=O)[C@H](CCC(=O)O)NC1=O)[C@@H](C)O
IC50 (MDM2; ligand displacement, FP): 40.7 nM

CC(=O)N(Cc1ccccc1)[C@@H](C)C(=O)N(C)CC(=O)N(Cc1c[nH]c2cc(Cl)ccc12)[C@@H](C)C(=O)N(C)CC(=O)N(CCC(C)(C)C)[C@@H](C)C(=O)N(C)CC(=O)N(C)CC(=O)N(C)CC(=O)NCCNC(=O)c1ccc2c(c1)C(=O)OC21c2ccc(O)cc2Oc2cc(O)ccc21
Kd (MDM2 N-terminal domain 17-125; binding, fluorescence anisotropy; 25 °C, fluorescein-labelled peptoid, 10 nM): 750 nM

CC(=O)N[C@@H](CC(C)C)C(=O)N[C@H](C(=O)N[C@@H](Cc1ccccc1)C(=O)N[C@H]1CCSc2c(F)c(F)c(c(F)c2F)SCC[C@@H](C(=O)N[C@@H](CCC(N)=O)C(=O)N[C@@H](CC(C)C)C(=O)N[C@H](C(=O)N[C@@H](CO)C(N)=O)[C@@H](C)O)NC(=O)[C@H](Cc2c[nH]c3ccccc23)NC(=O)[C@H](Cc2ccc(O)cc2)NC(=O)[C@H](CCC(=O)O)NC1=O)[C@@H](C)O
IC50 (MDM2; ligand displacement, FP): 92 nM

CC(=O)N(Cc1ccccc1)[C@@H](C)C(=O)N(C)[C@@H](C)C(=O)N(Cc1c[nH]c2ccccc12)[C@@H](C)C(=O)N(C)[C@@H](C)C(=O)N(CCC(C)C)[C@@H](C)C(N)=O
IC50 (MDM2; binding, fluorescence polarization; together with: labelled PMI peptide): 18000 ± 1000 nM

CC(C)C[C@H](NC(=O)[C@H](CCC(N)=O)NC(=O)[C@H](CCCNC(=N)N)NC(=O)[C@@H](N)CS)C(=O)N[C@@H](CCCNC(=N)N)C(=O)N[C@@H](CCCCN)C(=O)NCC(=O)N[C@@H](CCCCN)C(=O)N[C@@H](Cc1ccccc1)C(=O)N[C@@H](Cc1ccccc1)C(=O)N[C@@H](CO)C(=O)N[C@@H](CCC(=O)O)C(=O)NCC(=O)NCC(=O)N[C@@H](CO)C(=O)NCC(=O)NCC(=O)N[C@H](C(=O)N[C@@H](CO)C(=O)N[C@@H](Cc1ccccc1)C(=O)N[C@@H](CCC(=O)O)C(=O)N[C@@H](CCC(N)=O)C(=O)N[C@@H](Cc1ccccc1)C(=O)N[C@@H](Cc1c[nH]c2ccccc12)C(=O)N[C@@H](C)C(=O)N[C@@H](Cc1c[nH]c2ccccc12)C(=O)N[C@@H](CC(C)C)C(=O)N[C@@H](Cc1c[nH]c2ccccc12)C(=O)N1CCC[C@H]1C(=O)O)[C@@H](C)O
Kd (MDM2; fluorescence polarization; together with: rhodamine-labeled peptide): 82.4 nM

CC(=O)N[C@@H](CC(C)C)C(=O)N[C@H](C(=O)N[C@@H](Cc1ccccc1)C(=O)N[C@H]1CSc2c(F)c(F)c(c(F)c2F)-c2c(F)c(F)c(c(F)c2F)SC[C@@H](C(=O)N[C@@H](CO)C(N)=O)NC(=O)[C@H](CC(C)C)NC(=O)[C@H](CCC(N)=O)NC(=O)[C@H](C)NC(=O)[C@H](Cc2c[nH]c3ccccc23)NC(=O)[C@H](Cc2ccc(O)cc2)NC(=O)[C@H](CCC(=O)O)NC1=O)[C@@H](C)O
IC50 (MDM2; ligand displacement, FP): 2360 nM

CC(C)Oc1cc(C(=O)NCC(=O)O)ccc1NC(=O)[C@H](Cc1ccccc1)NC(=O)c1ccc(N)cc1OCc1ccccc1
IC50 (MDM2 L33E L33E; with p53; fluorescence anisotropy competition; pH 7.5): 62300 ± 5600 nM

CCOC(=O)[C@H]1Cc2c(cc([N+](=O)[O-])cc2[N+](=O)[O-])[C@@H](O)[C@@]12C(=O)Nc1ccccc12
IC50 (MDM2): 820 ± 100 nM

CC(=O)N[C@@H](CC(C)C)C(=O)N[C@H](C(=O)N[C@@H](Cc1ccccc1)C(=O)N[C@@H]1CSCc2ccc(cc2)-c2ccc(cc2)CSC[C@@H](C(=O)N[C@@H](CO)C(N)=O)NC(=O)[C@H](CC(C)C)NC(=O)[C@H](CCC(N)=O)NC(=O)[C@H](C)NC(=O)[C@H](Cc2c[nH]c3ccccc23)NC(=O)[C@H](Cc2ccc(O)cc2)NC(=O)[C@H](CCC(=O)O)NC1=O)[C@@H](C)O
IC50 (MDM2; ligand displacement, FP): 95 nM

Excerpt of the above:
CC(=O)N[C@@H](CC(C)C)C(=O)N[C@H](C(=O)N[C@@H](Cc1ccccc1)C(=O)N[C@H]1CCCCNC(=O)C[C@@H](C(=O)N[C@@H](CCC(N)=O)C(=O)N[C@@H](CC(C)C)C(=O)N[C@H](C(=O)N[C@@H](CO)C(N)=O)[C@@H](C)O)NC(=O)[C@H](Cc2c[nH]c3ccccc23)NC(=O)[C@H](Cc2ccc(O)cc2)NC(=O)[C@H](CCC(=O)O)NC1=O)[C@@H](C)O
IC50 (MDM2; ligand displacement, FP): 7 nM
